Measured values collected from several papers.
Each numbered part is a random draw from the data of one study; scales do not carry over between parts.

Series 1
Target: Centromere-binding protein 1, full length, His-tagged (CBF1, Saccharomyces cerevisiae, UniProt P17106, residues 1-351)
Sequence of UniProt P17106 (whole entry, looked up): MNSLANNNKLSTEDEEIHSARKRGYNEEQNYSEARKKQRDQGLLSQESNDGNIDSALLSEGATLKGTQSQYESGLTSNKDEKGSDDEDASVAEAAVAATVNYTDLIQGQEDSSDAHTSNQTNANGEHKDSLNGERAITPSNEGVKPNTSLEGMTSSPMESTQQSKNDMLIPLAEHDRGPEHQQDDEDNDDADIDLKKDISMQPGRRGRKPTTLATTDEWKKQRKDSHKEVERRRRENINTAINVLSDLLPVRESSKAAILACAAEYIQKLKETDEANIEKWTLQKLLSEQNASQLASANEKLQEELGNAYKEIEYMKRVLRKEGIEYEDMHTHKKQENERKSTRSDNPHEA
Method: competition protein-binding microarray
Molecule type: double-stranded DNA, one strand shown
Sample: in vitro
Concentration: 2 µM
Notes: whole 60-bp probe, lowest competitor level
Together with: Pho4 competitor, 0.05 µM
Direction: higher = stronger binding
`AAATTACTAAGTTGAACTGTGGGTGACGCCGTATGAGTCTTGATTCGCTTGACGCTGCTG` has a fluorescence intensity of 76.5 a.u.
The fluorescence intensity of `GATCTTGATCTTACCGTCGTGACGGGCAGCCTTGATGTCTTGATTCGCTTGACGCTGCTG` is reported as 78.8 a.u.
`ATACACATAGAAGGACACGTGGAACTAACAGTCATTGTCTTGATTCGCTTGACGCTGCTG` has a fluorescence intensity of 831 a.u.
For `AAATTACTAAGTTGGCAAGTGGGTGACGCCGTATGAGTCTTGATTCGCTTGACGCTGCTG`, the fluorescence intensity was 60 a.u.
The fluorescence intensity of `GTCTTGTCTCATTGGTCTGTGGGTGTCCCCACTTCAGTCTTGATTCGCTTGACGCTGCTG` is reported as 71.7 a.u.
For `CTTTCCCGATCTTGTAGTGTGGGTGTAGCACATTTGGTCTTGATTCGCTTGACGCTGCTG`, the fluorescence intensity was 71.9 a.u.
`TGCTCTCCCCCCTTCCTCGTGCTTTGCGACTGTTTAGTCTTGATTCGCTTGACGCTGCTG` has a fluorescence intensity of 146 a.u.
For `CGTCCTAGTGATTGTCACTGTACTTCCATGAGGAAGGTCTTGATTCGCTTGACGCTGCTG`, the fluorescence intensity was 94.6 a.u.
For `CTGTTTACCAATACTCACGTGGCCGCTCTTCTTTAGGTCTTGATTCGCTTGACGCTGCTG`, the fluorescence intensity was 1460 a.u.
The fluorescence intensity of `TGCGCAACAACTTGAATGGTGGGTGTATGTCTAGAAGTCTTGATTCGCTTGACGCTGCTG` is reported as 57.2 a.u.
With `CTAAATCCGCTTCTGCTCGTGGTGAGTACTTGCGCGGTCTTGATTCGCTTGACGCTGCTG` the fluorescence intensity was 56.8 a.u.
`CGGGGTTAAGTTTGTCACGTAACTTGCTTGCAGCAGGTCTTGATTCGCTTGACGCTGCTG` has a fluorescence intensity of 92.6 a.u.
The fluorescence intensity of `GCAGGTTCATTTACCTATGTGACGGGAGCTTCCATCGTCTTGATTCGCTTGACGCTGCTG` is reported as 58.9 a.u.
`CGGGGTTAAGTTTGGCTCGTGGGTGGCTTGCAGCAGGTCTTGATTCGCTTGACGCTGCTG` gave a fluorescence intensity of 80.9 a.u.
`AAATTACTAAGTTTTCACGTGAAATACCCCGTATGAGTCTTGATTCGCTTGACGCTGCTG` gave a fluorescence intensity of 785 a.u.
For `CTTTTGATACTCAAATTCGTGCCGAACCGGGAAAGAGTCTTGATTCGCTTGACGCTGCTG`, the fluorescence intensity was 76.9 a.u.

Series 2
Target: Histone acetyltransferase KAT6A, winged helix 1, GST fusion (KAT6A, Homo sapiens, UniProt Q92794, residues 1-85)
Method: protein binding microarray
Molecule type: double-stranded DNA, one strand shown
Sample: in vitro
Concentration: not given
Notes: 8-mer, flanks averaged, mean of 2 arrays, mostly near background
Relative to: not given
Direction: higher = stronger binding
Construct (chain): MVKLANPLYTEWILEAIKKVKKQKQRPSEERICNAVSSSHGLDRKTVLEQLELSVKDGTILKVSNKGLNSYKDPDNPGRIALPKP
For `AGTACCTA`, the E-score was -0.143.
`CCCGAACG` has an E-score of 0.227.
`ACGTGCGC` has an E-score of 0.332.
With `CTCGAGGA` the E-score was -0.302.
The E-score of `TCCACGCA` is reported as 0.0231.
`CTTAACAA` gave an E-score of 0.0025.
For `CCCTATCC`, the E-score was -0.115.
`GTCACGAC` gave an E-score of -0.156.
For `AGCGCTAA`, the E-score was 0.332.
With `CTGGCCCA` the E-score was -0.145.
The E-score of `GATGGACC` is reported as -0.102.
`CTGCGAAC` has an E-score of -0.0668.
For `CACCTACC`, the E-score was -0.157.
For `CTAAACCA`, the E-score was -0.0527.
`ATTAATTG` gave an E-score of -0.00301.
With `AACCGTGA` the E-score was 0.0966.
For `ACCAGACG`, the E-score was -0.134.
For `AAAAGGTA`, the E-score was -0.108.
For `AAAGTGCC`, the E-score was -0.141.
`CAGGTCCG` has an E-score of 0.0878.
With `CGCAGCCG` the E-score was 0.309.
`GAGACGGC` has an E-score of 0.303.
`GCGGTCCC` has an E-score of 0.273.
With `CCCGCGGC` the E-score was 0.462.
For `ACATTTGG`, the E-score was -0.05.

Series 3
Target: Interferon regulatory factor 5, full length, phosphomimetic (IRF5, Homo sapiens, UniProt Q13568-2, residues 1-514, S451D/S453D/S456D/S462D)
Method: protein-binding microarray
Molecule type: double-stranded DNA, one strand shown
Sample: in vitro
Concentration: 940 nM top
Notes: 60-bp whole probe
Together with: salmon DNA 0.4 mg/ml
Relative to: random background probes
Direction: higher = stronger binding
All sequences stand within: GCCTAGCAC … GTCTTGATTCGCTTGACGCTGCTG
For `TTAGGTTCCCTTTCCCTTTAGTGCTAG`, “fitted relative affinity” read 0.528 z-score.
`TTAGGTCTCGGGATCGGTTAGTGCTAG` — result for “fitted relative affinity”: 1.57 z-score.
`TTAGGTATGGGTATCGGTTAGTGCTAG` — result for “fitted relative affinity”: 3.06 z-score.
`TTTTATGAAGGCCGGGGAGGGTGCTAG`: “fitted relative affinity” 1.04 z-score.
For `ATGTTTTTCATTTTGTTCATGTGCTAG`, “fitted relative affinity” read 2.07 z-score.
`TTAGGACTGGGGTATAGGTTAGTGCTA`: “fitted relative affinity” 0.248 z-score.
For `TTAGGTATCGGACTGGGATAGTGCTAG`, “fitted relative affinity” read 3.33 z-score.
`TTAGATCTCAGACTGGCTTAGTGCTAG`: “fitted relative affinity” -0.571 z-score.
`TCAGCTTTCCTTTGCTTACTGTGCTAG` — result for “fitted relative affinity”: 0.125 z-score.
`GACGATATCAATTTCGAGACGTGCTAG`: “fitted relative affinity” 0.198 z-score.
`CACGATTTCAGACTGGAGACGTGCTAG`: “fitted relative affinity” -0.228 z-score.
Under “fitted relative affinity”, `GACGGTCTCGGTATCGGGAAGTGCTAG` is recorded as 5.03 z-score.
Under “fitted relative affinity”, `TTAGGCCTGGGTCTCGGTTAGTGCTAG` is recorded as 1.01 z-score.
For `GACGATATCAGTACCGAGACGTGCTAG`, “fitted relative affinity” read -0.0349 z-score.
For `GACGGTATCGACTTTCGGGATGTGCTA`, “fitted relative affinity” read 4.54 z-score.
Under “fitted relative affinity”, `GACGGTCTCCTTTTCCTGATGTGCTAG` is recorded as 0.734 z-score.
For `TGAACTTGGAATTTCCCTCTGTGCTAG`, “fitted relative affinity” read -0.476 z-score.
For `GAAGGACTGGACACTGGGGACGTGCTA`, “fitted relative affinity” read -0.645 z-score.
`TAAGATTTCAGTATCGATTAGTGCTAG` — result for “fitted relative affinity”: 5.98 z-score.
Under “fitted relative affinity”, `GACGGTCTCGGTCTCGGGTCGTGCTAG` is recorded as 5.76 z-score.
`TTAGTTATCCTTCTCCTTTAGTGCTAG` — result for “fitted relative affinity”: 0.579 z-score.
`TAAGGTCTCGGTTTCGGTTAGTGCTAG`: “fitted relative affinity” 9.58 z-score.
For `GACGGTTTAGGTTTCGGGACGTGCTAG`, “fitted relative affinity” read 5.21 z-score.
`GACGAACTGGGGTATCGAGACGTGCTA` — result for “fitted relative affinity”: 1.03 z-score.
`GACGGTTCCGGTTTCGGTACGTGCTAG` — result for “fitted relative affinity”: 8.72 z-score.

Series 4
Target: RNA binding protein fox-1 homolog 2, RRM domain, GST-SBP tag (RBFOX2, Homo sapiens, UniProt O43251-10, residues 100-194)
Method: RNA Bind-n-Seq
Molecule type: RNA
Sample: in vitro
Concentration: 365 nM
Notes: natural RNA segment, single round, ends assumed
Relative to: no-protein control
Direction: higher = stronger binding
Residues (chain): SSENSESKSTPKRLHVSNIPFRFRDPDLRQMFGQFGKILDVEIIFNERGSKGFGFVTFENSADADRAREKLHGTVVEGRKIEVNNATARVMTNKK
For `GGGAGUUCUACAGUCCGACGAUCCUUGAUUUCUAGCCCCAUUCUGAGGGGCACCAGCUGUUACCCAGUUUCUAGUUCCUGGCUCUUGAGGGGCUUGGUCCUGCCUGCUCUAUGGAAGGGGCCAAGAGGAGCUGUGGAAUUCUCGGGUGCCAA`, “RBNS enrichment (R)” read 0.387.
Under “RBNS enrichment (R)”, `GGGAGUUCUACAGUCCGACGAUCGACCCAGGAGAGAGGUGCCCCUUGUGGGAGUUCCAUUCUGUGGCAUGCAACUGAGCAGGGUUAGGGAAACAGGUGUCAAGAAUGAAGAGAAUGGUUUUAUCUCCAAGGUGUGGAAUUCUCGGGUGCCAA` is recorded as 9.06.
Under “RBNS enrichment (R)”, `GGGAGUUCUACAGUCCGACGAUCACGUGUCUGCCAGGGCUCAAGUUUUAUUGUUCUUGCCCCACUCCCACCCCAUGUUACAGCAAGACUGGUCUUACAGAGUGAGUACUCUGGGUGAUGCUUACGGGAAGGAGUGGAAUUCUCGGGUGCCAA` is recorded as 2.
Under “RBNS enrichment (R)”, `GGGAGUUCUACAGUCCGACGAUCUAGGUGAUGUAAAAUAACCGUACAAUAUUAUGCAUGCUAUCCCAUAAUGCUUAGUGACUGUAUGAUAUUACUCAGAGUUCUGUUAGACUUUUUUUCUGCCUCGGUUCUUAUGGAAUUCUCGGGUGCCAA` is recorded as 0.54.
Under “RBNS enrichment (R)”, `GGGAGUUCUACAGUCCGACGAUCCCAUCCCGGGUUUGGCUGAGCCUGGCUGGAGAGCUGCUAUGCUAAACCUCCUGCCUCCCAAUACCAGCAGGAGGUUCUGGGCCUCUGAACCCCCUUUCCCCACACCUCCCUGGAAUUCUCGGGUGCCAA` is recorded as 0.733.
Under “RBNS enrichment (R)”, `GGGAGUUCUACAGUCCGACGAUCAGGGCAUGGCAAUGGCCUCAUCCUUAAAAUGUUAUUUCUACUCUCACCCUGAGAGACCUGGGCAGCCAGGCUUUCCCCAGGCUGCCCGCCCUGAGCCAGGUGCCACCACUUGGAAUUCUCGGGUGCCAA` is recorded as 0.182.
`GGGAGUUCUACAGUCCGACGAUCUGGUGGACGAUGAGGGCUUCGGUGAUGGCUUCACCCGAGAGGAGCCCGCCACGGUGGAUGUAUGUGCGCUCACCUGAGCUUGCUUGGGCCCAGUGUGGGGGUGGCAGGCAUGGAAUUCUCGGGUGCCAA` — result for “RBNS enrichment (R)”: 11.
`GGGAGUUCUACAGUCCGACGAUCAAACCUUAACUCUUCUCUGCACAAUGGAGAUGAAUUAUUGGCAGCUGAUCAAACUCUUCAGGCAGGAUUCCUGUGGACUUUGAGAUUUCCUGUUACCUCAUCUUCUUUUUUGGAAUUCUCGGGUGCCAA`: “RBNS enrichment (R)” 0.317.
`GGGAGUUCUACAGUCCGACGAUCUGGAUAUGCCUAUGUCACACUGUCACUCAGUGUGUGGAACUUUCUCUUUAAAGGUGUAACAUCUUAAAUUUGGUGAUGAAUAGUGACAACCAAAAGACUAGAUUGUGCCUUGGAAUUCUCGGGUGCCAA`: “RBNS enrichment (R)” 0.344.
`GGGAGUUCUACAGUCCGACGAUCGAAACGUAGCAGGUUUCACAUUUUCUGUGUCUCCGACAGGAGCCGCCAUCUCCCGUGAGGCUUACAGAUUUCAAUAUUGGGAACAACUCUAAUCCUCAAACUAAGCCACCUGGAAUUCUCGGGUGCCAA`: “RBNS enrichment (R)” 0.243.
For `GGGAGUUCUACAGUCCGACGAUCUUCCUACUAUAGCAUGAACCCUACAUACGCCACCCUCAGUCUCUCUUGCUUCCUCUUUAACCCGGAGAGGGACUCCCCUGUGGCUAUCCCCCAUCUCUACCAACAAAGUGUGGAAUUCUCGGGUGCCAA`, “RBNS enrichment (R)” read 5.34.
`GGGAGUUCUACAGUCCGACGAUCUGGCAUUUUUUUAUCUGUAUACUUUUUGAUGUGGUUGAUUGUUUUUAACAUGCUAAAAGUAAUCCGUGUAUUUUGUUCUGUGUCUUCUGUGUGCAGCUUCCCCGUGGCAAUGGAAUUCUCGGGUGCCAA` — result for “RBNS enrichment (R)”: 0.587.
